Assay results pooled from the literature.
Protocols differ between the studies behind these lines. Several values in a cell are separate wells, animals, samples, runs or records. Numbers after ± are the reported error.
Genome polyprotein NS2B-NS3 protease: Genome polyprotein, NS2B-NS3 protease (dengue virus type 2, UniProt P29990)
Sequence of UniProt P07947 (whole entry, looked up): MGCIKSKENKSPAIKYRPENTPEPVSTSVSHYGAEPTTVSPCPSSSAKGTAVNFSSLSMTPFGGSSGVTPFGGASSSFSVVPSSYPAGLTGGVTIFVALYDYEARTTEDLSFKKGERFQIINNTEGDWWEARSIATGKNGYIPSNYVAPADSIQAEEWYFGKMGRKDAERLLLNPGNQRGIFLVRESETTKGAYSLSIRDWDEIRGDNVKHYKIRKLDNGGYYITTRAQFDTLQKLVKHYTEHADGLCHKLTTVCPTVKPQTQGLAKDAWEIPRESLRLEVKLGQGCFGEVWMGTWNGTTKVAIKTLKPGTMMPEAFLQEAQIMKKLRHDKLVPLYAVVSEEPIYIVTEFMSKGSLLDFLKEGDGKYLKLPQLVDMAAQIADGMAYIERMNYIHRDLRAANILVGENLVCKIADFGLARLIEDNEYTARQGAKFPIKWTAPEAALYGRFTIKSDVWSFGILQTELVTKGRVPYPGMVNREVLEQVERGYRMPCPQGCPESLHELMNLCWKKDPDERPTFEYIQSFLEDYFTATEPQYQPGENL

O=C(N/N=C/c1cc[n+](Cc2ccccc2)c2ccccc12)c1cccc(C(=O)N/N=C/c2cc[n+](Cc3ccccc3)c3ccccc23)c1 — ΔTm (telomeric G4 DNA hybrid-2; FRET melting; 1 µM, DNA 0.2 µM, added: duplex DNA competitor 10 µM): 12.5 ± 0.3 °C
C=CC(=O)Nc1cccc(Cn2ncc3cnc(Nc4cnn(CCOC)c4)nc32)c1 — percent of control (MTOR human; binding, KINOMEscan; 100 nM; lower = stronger binding): 100%
CNS(=O)(=O)Nc1nccc(Cc2c(C)c3ccc(Oc4ncccc4F)cc3oc2=O)c1F — IC50 (COR-L23; cell viability; 7 days): 17.1 nM
CN1CCCNC(=O)c2cccc(c2)C(=O)NCCCN(C)CCCNc2cccc3c2C(=O)c2cccc(c2C3=O)NCCC1 — log2 fold change (SAS; RNA-Seq, measured: PDP2 mRNA; 1 µM, 6 h; reference: untreated cells): 0.624
CC[n+]1cccc2cc(/C=N/NC(=O)c3ccc4ccc5ccc(C(=O)N/N=C/c6ccc7c(ccc[n+]7CC)c6)nc5c4n3)ccc21 — ΔTm (telomeric G4 DNA hybrid-2; FRET melting; 1 µM, DNA 0.2 µM, added: duplex DNA competitor 10 µM): 34.6 ± 1 °C
C=C(NC(=O)c1csc(-c2nc3c(cc2O)-c2nc(cs2)C(=O)NC(C(C)O)C(=O)NC(=C(C)OC)c2nc(cs2)C(=O)NC2c4nc(cs4)C(=O)NC(COC(=O)c4c5c6c(cccc6n4O)COC(=O)C(OC4CC(C)(O)C(N(C)C)C(C)O4)C2OC5)c2nc-3cs2)n1)C(N)=O (stereo not drawn) — bacterial load (Streptococcus pneumoniae; -4, immunocompromised mice, lung infection, lung; 2 mg/kg/day three times daily, 24 h post-dose): 4.15 log CFU/g
CCCC[C@H](NC(=O)CCCCCCCNC(=O)CN1CCN(CC(=O)O)CCN(CC(=O)O)CC1)C(=O)N[C@H]1CC(=O)NCCCC[C@@H](C(N)=O)NC(=O)[C@H](Cc2c[nH]c3ccccc23)NC(=O)[C@H](CCCNC(=N)N)NC(=O)[C@@H](Cc2ccccc2)NC(=O)[C@H](Cc2c[nH]cn2)NC1=O [technetium-99m labelled] — tissue uptake (C57 mouse, skin; intravenous, 0.037 MBq, 2 h): 0.25 ± 0.14 %ID/g
O=C1c2ccc3c4ccc5c6c(ccc(c7ccc(c2c37)C(=O)N1CCN1CCCCC1)c64)C(=O)N(CCN1CCCCC1)C5=O — DC50 (hTERT promoter G-quadruplex DNA; binding, thiazole orange displacement; pH 8): 1480 ± 310 nM
C[n+]1cc(/C=N/NC(=O)c2cccc(C(=O)N/N=C/c3cc4ccccc4[n+](C)c3)n2)cc2ccccc21 — ΔTm (telomeric G4 DNA hybrid-2; FRET melting; 1 µM, DNA 0.2 µM): 21 ± 0.9 °C
C=CC(=O)N1[C@@H](c2ccc3c(c2)OCO3)c2[nH]c3ccccc3c2C[C@H]1C(=O)N1CCN(C)CC1 — relative co-enrichment (human cyclin E1 N112C-3xFLAG:CDK2; co-IP with TMT proteomics, measured: HSPA8; concentration not given, P11142; reference: wild type DMSO): 102%
Cc1ncsc1-c1ccc(C(C)NC(=O)C2CC(O)CN2C(=O)C(NC(=O)CCCCCCCCCCN2CCCC(Nc3ncc(Cl)c(Nc4ccccc4S(=O)(=O)C(C)C)n3)C2)C(C)(C)C)cc1 (stereo not drawn) — log2 fold change (22Rv1; RNA-seq, measured: NABP1 mRNA; concentration not given; reference: DMSO): -2.46
CC(=O)[O-].O.O.[O-]c1ccc(Br)cc1C=NCCN1CCOCC1.[Zn+2] — inhibition (superoxide scavenging; 80 µM): 12.3%
CC(C)C[C@H](NC(=O)[C@H](Cc1ccc(O)cc1)NC(=O)[C@@H](CCCNC(=N)N)NC(=O)[C@@H](CO)NC(=O)[C@H](Cc1ccccc1)NC(=O)[C@H](CC1CCCCC1)NC(=O)[C@H](CC(=O)O)NC(=O)CN1CCN(CC(=O)O)CCN(CC(=O)O)CCN(CC(=O)O)CC1)C(=O)N[C@@H](Cc1c[nH]c2ccccc12)C(=O)N[C@@H](CO)C(=O)O [copper-64 labelled] — activity concentration (human, stomach contents; concentration not given, 24 h): 400 Bq/mL and 944 Bq/mL and 166 Bq/mL and 1240 Bq/mL and 942 Bq/mL and 683 Bq/mL
Nc1ncc(-c2cc(-c3cnn(CC(F)(F)F)c3)ncc2F)nc1C(=O)NC1CNCC(F)C1 (stereo not drawn) — remaining binding (ERBB4; KINOMEscan; 1 µM; reference: DMSO control): 100%
C=CC(=O)N1CC2(CCN(c3nc(OC4CCN(CCCOC)CC4)nc4c(OCC(F)(F)F)c(-c5c(C)ccc6[nH]ncc56)c(C5CC5)cc34)CC2)C1 — Kd (GTPase KRas, GDP-bound (KRAS, Homo sapiens, UniProt P01116, G13D); binding, surface plasmon resonance): 863 ± 150 nM
N=C(N)NCCC[C@@H]1NC(=O)[C@H](CCCNC(=N)N)NC(=O)[C@@H](C(c2ccccc2)c2ccccc2)NC(=O)[C@H](Cc2c[nH]c3ccccc23)NC(=O)[C@@H](C(c2ccccc2)c2ccccc2)NC(=O)[C@@H](CCCNC(=N)N)NC(=O)[C@@H](CCCNC(=N)N)NC1=O — reduction of viable cells (Aspergillus fumigatus; Af 293; 4 x MIC, 8 h): > 85%
O=C(N/N=C/c1ccc(C[n+]2ccccc2)cc1)c1cccc(C(=O)N/N=C/c2ccc(C[n+]3ccccc3)cc2)n1 — ΔTm (telomeric G4 DNA hybrid-2; FRET melting; 1 µM, DNA 0.2 µM, added: duplex DNA competitor 10 µM): 11.9 ± 2.1 °C
Cc1nn(-c2cccc(N)c2)c(=O)c2cnc(Nc3ccc(N4CCNCC4)cc3)nc12 — IC50 (Tyrosine-protein kinase Yes (YES1, Homo sapiens, UniProt P07947); kinase activity, inhibitor, SelectScreen kinase profiling): 468 nM
CC(C)(C)c1cc(-c2ccc3cccnc3n2)nc(-c2ccc3cccnc3n2)c1.COc1ccncc1.[Cl-].[Cl-].[Ru+2].c1ccc2cc3nc4c5cccnc5c5ncccc5c4nc3cc2c1 — EC50 (B16-F10; resazurin; added: light 733 nm, 9 mW, 100 J/cm2): 2410 nM
C[n+]1ccc(/C=N/NC(=O)C(=O)N/N=C/c2cc[n+](C)cc2)cc1 — ΔTm (telomeric G4 DNA hybrid-2; FRET melting; 1 µM, DNA 0.2 µM): 1.1 ± 0.9 °C
Cc1c(C(=O)Nc2cccc(C(N)=O)c2)cnn1-c1ccccc1 — EC50 (Genome polyprotein NS2B-NS3 protease; reporter gene; HeLa): 29000 nM
O=C(Nc1cnccc1-c1ccc([18F])nc1)c1ccnc(NC(=O)C2CC2)c1 — SUV (FVB/NJ mice (both sexes), blood; intravenous, dose not given, 120 min): 0.383
Cc1cc(C(=O)Nc2cccc(C(N)=O)c2)n(Cc2ccccc2)n1 — EC50 (Genome polyprotein NS2B-NS3 protease; reporter gene; HeLa): 21000 nM
COC1CN([C@H]2CC[C@H]([C@@]3(C)Oc4c(Cl)cc(C(=O)NCc5c(SC)cc(C)[nH]c5=O)c(C)c4O3)CC2)C1 — log2 fold change (RNA-seq, measured: JHY; human cancer patients, whole blood; dose not given, 24 h, PRC2 target gene; reference: pretreatment sample): 1.6

A few entries again:
C[n+]1cc(/C=N/NC(=O)c2cccc(C(=O)N/N=C/c3cc4ccccc4[n+](C)c3)n2)cc2ccccc21 — ΔTm (telomeric G4 DNA hybrid-2; FRET melting; 1 µM, DNA 0.2 µM): 21 ± 0.9 °C
